{"data": "Experimental data pooled from the literature", "Ectonucleoside triphosphate diphosphohydrolase 1": "Ectonucleoside triphosphate diphosphohydrolase 1 (Homo sapiens, UniProt P49961)", "CDC25B": "M-phase inducer phosphatase 2 (CDC25B, Homo sapiens, UniProt P30305)", "note": "Each line is one published result; not all experiments were run side by side. Numbers after ± are the reported error.", "sequence of UniProt P30305 (whole entry, looked up)": "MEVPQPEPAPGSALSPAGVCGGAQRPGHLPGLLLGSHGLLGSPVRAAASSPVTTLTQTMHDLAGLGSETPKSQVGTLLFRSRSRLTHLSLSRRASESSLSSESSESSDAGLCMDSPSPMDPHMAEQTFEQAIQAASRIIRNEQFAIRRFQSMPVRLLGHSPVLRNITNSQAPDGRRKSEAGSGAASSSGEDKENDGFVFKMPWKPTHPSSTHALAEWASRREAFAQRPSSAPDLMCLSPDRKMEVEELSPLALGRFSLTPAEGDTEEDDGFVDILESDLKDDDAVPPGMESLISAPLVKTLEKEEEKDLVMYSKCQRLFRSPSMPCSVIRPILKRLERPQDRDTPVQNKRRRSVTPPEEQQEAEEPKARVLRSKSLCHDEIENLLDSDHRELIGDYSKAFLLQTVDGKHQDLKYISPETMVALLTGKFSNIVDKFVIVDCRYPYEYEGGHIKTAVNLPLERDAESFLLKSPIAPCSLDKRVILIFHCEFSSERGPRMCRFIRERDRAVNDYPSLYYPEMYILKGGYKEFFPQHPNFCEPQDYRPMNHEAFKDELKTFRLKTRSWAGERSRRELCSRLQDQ", "sequence of UniProt P49961 (whole entry, looked up)": "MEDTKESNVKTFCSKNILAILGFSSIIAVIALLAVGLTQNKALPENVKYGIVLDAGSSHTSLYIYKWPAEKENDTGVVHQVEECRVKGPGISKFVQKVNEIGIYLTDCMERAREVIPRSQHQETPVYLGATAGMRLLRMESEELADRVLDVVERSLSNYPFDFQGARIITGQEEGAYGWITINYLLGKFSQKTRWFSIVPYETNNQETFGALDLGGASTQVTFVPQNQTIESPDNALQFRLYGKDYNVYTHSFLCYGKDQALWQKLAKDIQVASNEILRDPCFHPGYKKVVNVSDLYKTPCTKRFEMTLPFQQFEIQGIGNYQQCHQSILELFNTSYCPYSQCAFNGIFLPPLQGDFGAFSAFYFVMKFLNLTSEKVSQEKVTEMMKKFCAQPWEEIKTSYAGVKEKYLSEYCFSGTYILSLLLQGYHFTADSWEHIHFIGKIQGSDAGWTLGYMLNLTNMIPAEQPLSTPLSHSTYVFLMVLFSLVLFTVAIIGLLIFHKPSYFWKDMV", "sequence of UniProt P25116 (whole entry, unmodified, looked up)": "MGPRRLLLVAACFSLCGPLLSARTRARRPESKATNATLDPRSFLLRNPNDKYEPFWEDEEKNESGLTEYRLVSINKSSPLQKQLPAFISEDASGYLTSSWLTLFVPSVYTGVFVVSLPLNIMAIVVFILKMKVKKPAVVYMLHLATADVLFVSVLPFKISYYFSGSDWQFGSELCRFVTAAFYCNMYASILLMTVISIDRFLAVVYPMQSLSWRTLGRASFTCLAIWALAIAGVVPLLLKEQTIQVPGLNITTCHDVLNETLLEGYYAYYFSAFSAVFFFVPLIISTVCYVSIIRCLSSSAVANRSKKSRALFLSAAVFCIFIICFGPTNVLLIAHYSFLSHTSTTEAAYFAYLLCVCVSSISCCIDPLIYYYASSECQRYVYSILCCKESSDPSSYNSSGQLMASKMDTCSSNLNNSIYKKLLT", "sequence of UniProt P09874 (whole entry, looked up)": "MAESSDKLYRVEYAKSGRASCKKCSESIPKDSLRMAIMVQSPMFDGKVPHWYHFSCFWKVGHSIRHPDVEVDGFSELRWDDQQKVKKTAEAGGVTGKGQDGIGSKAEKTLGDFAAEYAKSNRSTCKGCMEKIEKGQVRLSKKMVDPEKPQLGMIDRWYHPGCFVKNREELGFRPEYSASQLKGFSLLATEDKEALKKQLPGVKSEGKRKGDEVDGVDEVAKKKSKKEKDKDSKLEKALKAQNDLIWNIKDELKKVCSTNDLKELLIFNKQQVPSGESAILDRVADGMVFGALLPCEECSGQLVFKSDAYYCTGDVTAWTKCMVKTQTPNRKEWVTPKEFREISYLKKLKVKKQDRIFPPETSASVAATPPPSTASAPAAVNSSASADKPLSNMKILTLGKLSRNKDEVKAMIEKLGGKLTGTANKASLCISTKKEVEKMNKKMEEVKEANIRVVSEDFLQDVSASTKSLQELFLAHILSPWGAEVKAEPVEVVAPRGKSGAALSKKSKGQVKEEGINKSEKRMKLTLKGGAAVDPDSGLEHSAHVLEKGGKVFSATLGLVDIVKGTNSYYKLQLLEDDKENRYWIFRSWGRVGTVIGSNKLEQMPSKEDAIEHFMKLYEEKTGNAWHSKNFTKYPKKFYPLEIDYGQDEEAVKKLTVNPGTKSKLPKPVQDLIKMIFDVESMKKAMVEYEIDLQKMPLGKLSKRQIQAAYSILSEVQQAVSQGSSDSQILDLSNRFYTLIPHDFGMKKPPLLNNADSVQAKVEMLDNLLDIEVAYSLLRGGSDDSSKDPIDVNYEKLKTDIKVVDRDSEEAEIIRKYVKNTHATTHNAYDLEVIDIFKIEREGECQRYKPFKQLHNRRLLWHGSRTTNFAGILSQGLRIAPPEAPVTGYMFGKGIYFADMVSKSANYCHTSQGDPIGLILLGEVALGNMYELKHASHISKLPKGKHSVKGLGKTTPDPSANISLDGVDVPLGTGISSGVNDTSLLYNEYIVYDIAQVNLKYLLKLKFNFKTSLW", "sequence of UniProt P35462 (whole entry, looked up)": "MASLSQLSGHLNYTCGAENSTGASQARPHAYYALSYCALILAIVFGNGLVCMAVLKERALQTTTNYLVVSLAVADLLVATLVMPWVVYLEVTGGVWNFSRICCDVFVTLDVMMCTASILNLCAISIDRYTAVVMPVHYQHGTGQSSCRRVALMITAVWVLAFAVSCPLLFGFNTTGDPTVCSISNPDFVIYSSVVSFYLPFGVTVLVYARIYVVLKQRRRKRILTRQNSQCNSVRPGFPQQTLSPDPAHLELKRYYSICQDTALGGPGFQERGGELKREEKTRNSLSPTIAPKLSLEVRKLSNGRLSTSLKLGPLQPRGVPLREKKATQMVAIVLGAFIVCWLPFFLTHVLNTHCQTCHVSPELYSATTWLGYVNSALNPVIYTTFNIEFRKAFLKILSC", "sequence of UniProt Q13621 (whole entry, looked up)": "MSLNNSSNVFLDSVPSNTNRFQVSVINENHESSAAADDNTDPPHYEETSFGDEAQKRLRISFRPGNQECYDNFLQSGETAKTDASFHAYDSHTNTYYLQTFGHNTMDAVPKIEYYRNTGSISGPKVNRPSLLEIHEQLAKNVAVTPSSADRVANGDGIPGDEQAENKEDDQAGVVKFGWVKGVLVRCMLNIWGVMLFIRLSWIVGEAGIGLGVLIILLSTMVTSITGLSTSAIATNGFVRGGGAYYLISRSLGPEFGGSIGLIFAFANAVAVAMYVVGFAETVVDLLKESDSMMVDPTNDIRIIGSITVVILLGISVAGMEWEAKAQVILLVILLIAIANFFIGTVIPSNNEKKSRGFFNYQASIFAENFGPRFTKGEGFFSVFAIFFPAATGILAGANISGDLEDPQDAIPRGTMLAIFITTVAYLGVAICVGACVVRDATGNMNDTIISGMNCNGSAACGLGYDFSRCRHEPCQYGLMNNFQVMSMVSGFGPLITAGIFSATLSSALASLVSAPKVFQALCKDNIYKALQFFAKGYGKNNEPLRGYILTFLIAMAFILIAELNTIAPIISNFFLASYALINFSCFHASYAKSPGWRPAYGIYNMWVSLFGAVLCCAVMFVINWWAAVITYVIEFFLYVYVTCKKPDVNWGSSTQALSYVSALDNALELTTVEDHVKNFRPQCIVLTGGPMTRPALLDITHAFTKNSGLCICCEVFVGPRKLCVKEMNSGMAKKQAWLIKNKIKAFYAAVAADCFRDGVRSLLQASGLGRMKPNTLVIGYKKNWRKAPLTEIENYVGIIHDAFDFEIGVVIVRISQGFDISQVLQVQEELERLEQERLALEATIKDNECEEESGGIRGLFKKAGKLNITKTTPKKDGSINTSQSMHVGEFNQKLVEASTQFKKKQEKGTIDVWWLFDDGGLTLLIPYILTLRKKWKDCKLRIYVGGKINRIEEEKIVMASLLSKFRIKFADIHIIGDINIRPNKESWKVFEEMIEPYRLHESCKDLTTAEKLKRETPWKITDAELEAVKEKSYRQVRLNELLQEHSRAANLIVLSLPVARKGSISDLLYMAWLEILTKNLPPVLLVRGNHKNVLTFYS", "sequence of UniProt P30530 (whole entry, looked up)": "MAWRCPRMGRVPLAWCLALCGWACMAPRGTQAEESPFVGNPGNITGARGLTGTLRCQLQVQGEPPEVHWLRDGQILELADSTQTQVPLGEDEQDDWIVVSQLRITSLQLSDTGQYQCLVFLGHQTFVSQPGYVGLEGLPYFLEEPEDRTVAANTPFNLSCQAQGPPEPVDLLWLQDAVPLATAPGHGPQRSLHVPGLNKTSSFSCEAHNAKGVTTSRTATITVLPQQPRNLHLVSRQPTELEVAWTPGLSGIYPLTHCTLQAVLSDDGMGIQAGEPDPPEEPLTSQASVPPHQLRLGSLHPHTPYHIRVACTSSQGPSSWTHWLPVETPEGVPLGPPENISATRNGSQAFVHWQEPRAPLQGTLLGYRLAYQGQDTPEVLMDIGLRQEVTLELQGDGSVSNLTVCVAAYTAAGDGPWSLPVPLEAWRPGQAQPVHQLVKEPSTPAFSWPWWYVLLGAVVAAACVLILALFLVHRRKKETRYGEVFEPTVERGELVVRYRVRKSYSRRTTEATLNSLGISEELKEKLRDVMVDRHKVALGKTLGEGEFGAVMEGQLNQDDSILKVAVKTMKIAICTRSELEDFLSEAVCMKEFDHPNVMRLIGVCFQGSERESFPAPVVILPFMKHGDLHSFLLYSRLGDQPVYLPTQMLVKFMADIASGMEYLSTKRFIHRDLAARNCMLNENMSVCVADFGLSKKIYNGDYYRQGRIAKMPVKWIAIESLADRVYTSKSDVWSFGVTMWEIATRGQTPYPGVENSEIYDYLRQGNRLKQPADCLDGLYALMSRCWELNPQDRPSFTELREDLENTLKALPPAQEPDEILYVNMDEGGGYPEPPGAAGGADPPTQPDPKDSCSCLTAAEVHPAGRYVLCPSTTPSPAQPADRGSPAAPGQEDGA"}
{"SMILES": "CN=c1nc(-c2ccccc2)n(-c2ccccc2)s1", "target": "Trypanothione synthetase (Trypanosoma cruzi, UniProt Q9GT49)", "test": "enzyme activity, inhibitor, absorbance", "setting": "25 µM", "inhibition": "43.4%"}
{"SMILES": "Cc1nc(CN(C)c2ncnc3c2cnn3CCO)cs1", "target": "Heat shock protein 90, N-terminal domain (Plasmodium falciparum, UniProt Q8IC05)", "test": "ligand displacement, FP", "setting": "10 µM", "inhibition": "97%"}
{"SMILES": "Nc1nc(Nc2ccccc2)sc1C(=O)c1ccccc1", "target": "GSK3B (Homo sapiens, UniProt P49841)", "test": "enzyme activity, inhibitor, kinase selectivity panel", "setting": "10 µM", "inhibition": "inhibited"}
{"SMILES": "O=C(O)c1cccc(S(=O)(=O)N2CCOCC2)c1", "target": "Ectonucleoside triphosphate diphosphohydrolase 1", "test": "enzyme activity, inhibitor, absorbance", "setting": "100 µM", "inhibition": "15%"}
{"SMILES": "NC(=O)c1ccc(C(=O)NOCc2ccc(Sc3cccc(Cl)c3)c(C(F)(F)F)c2)cc1", "target": "HDAC8 (Homo sapiens, UniProt Q9BY41)", "test": "cell-free assay, inhibitor", "setting": "100 µM", "inhibition": "22.2%"}
{"SMILES": "COc1cc(C(=O)NC2CCC(N3CCN(CC4CCC5(CCCC5)C4)CC3)CC2)c(F)cc1Nc1ncc2c(n1)N(C1CCCC1(F)F)CC(F)(F)C(=O)N2C (centres unmarked)", "target": "AXL (Homo sapiens, UniProt P30530)", "test": "cell-free assay, TR-FRET", "setting": "10 µM", "inhibition": "0.4%"}
{"SMILES": "O=C1CC(CO)NC(=O)c2ccccc21 (centres unmarked)", "target": "PARP1 (Homo sapiens, UniProt P09874)", "test": "enzyme activity, inhibitor", "setting": "10 µM", "inhibition": "> 50%"}
{"SMILES": "CN(C)S(=O)(=O)c1cc(C(=O)O)ccc1NCCCCCCCC(F)(F)F", "target": "Solute carrier family 12 member 1 (SLC12A1, Homo sapiens, UniProt Q13621)", "test": "chloride influx", "system": "HEK293 transfected with SLC12A1", "setting": "10 µM", "how to read": "baseline: DMSO", "inhibition": "-6.9 ± 7.8%"}
{"SMILES": "N#CCSc1nc(N)c2c(F)c(C#N)c(F)c(Cl)c2n1", "target": "CDC25B", "test": "enzyme activity, inhibitor, fluorescence", "setting": "20 µg/mL", "inhibition": "73.8%"}
{"SMILES": "O=C(c1cccc(S(=O)(=O)NC2CC2)c1)N1CCOCC1", "target": "Ectonucleoside triphosphate diphosphohydrolase 1", "test": "enzyme activity, inhibitor, absorbance", "setting": "100 µM", "inhibition": "28%"}
{"SMILES": "CCCCCCCCCCCCCCCC(=O)N[C@@H](CCCCN)C(=O)N[C@@H](CCCCN)C(=O)N[C@@H](CO)C(=O)N[C@@H](CCCNC(=N)N)C(=O)N[C@@H](C)C(=O)N[C@@H](CC(C)C)C(=O)N[C@@H](Cc1ccccc1)C(N)=O", "target": "F2R (Homo sapiens, UniProt P25116)", "test": "platelet aggregation, light transmittance aggregometry", "system": "human, platelet-rich plasma ex vivo", "setting": "0.5 mg/kg, 14 days, with: SFLLRN 5 µM", "how to read": "baseline: baseline", "inhibition": "32%"}
{"SMILES": "CSc1nc(N)c2c(F)c(C#N)c(F)c(F)c2n1", "target": "CDC25B", "test": "enzyme activity, inhibitor, fluorescence", "setting": "20 µg/mL", "inhibition": "55.1%"}
{"SMILES": "O=C(O[C@H]1Cc2c(O)cc(O)cc2O[C@@H]1c1ccc(O)c(O)c1)c1cc(O)c(O)c(O)c1", "target": "Si (Rattus norvegicus, UniProt P23739)", "test": "enzyme activity, inhibitor", "system": "rat intestinal brush border vesicles", "setting": "10 µM", "inhibition": "79.2%"}
{"SMILES": "Cc1ccnc(-c2cc(C(=O)NCCCCn3cc(CN(CC(N)=O)C(=O)CN(CCCCN)C(=O)CN(CCCCN)C(=O)CN(C(=O)CN(CC(C)C)C(=O)CN(CC(C)C)C(=O)CN(CCc4c[nH]c5ccccc45)C(=O)CN(CCCCN)C(=O)C(N)CCCCNC(=O)CCCCCNc4ncnc5[nH]cnc45)C(C)c4ccccc4)nn3)ccn2)c1 (centres unmarked)", "target": "Coelenterazine h 2-monooxygenase (Renilla reniformis, UniProt P27652)", "test": "luciferase activity", "system": "transfected HeLa", "setting": "1 µM, irradiated 30 min", "inhibition": "no inhibition"}
{"SMILES": "COCCOCCSc1nc(N)c2c(F)c(C#N)c(F)c(F)c2n1", "target": "CDC25B", "test": "enzyme activity, inhibitor, fluorescence", "setting": "20 µg/mL", "inhibition": "3.3%"}
{"SMILES": "COc1cc(-c2nc(SCc3cn(CC(=O)NC(=O)Nc4ccccn4)nn3)nc(Nc3ccc(C)cc3)c2C#N)cc(OC)c1OC", "target": "KDM1A (Homo sapiens, UniProt O60341)", "test": "enzyme activity, inhibitor, fluorescence", "setting": "1 µM", "inhibition": "89.2%"}
{"SMILES": "CCn1c2ccccc2c2cc(CNCCCn3ccnn3)ccc21", "target": "DRD3 (Homo sapiens, UniProt P35462)", "test": "cell-free assay, inhibitor", "setting": "10 µM", "inhibition": "95.8%"}
{"note": "Repeated from above:"}
{"SMILES": "CSc1nc(N)c2c(F)c(C#N)c(F)c(F)c2n1", "target": "CDC25B", "test": "enzyme activity, inhibitor, fluorescence", "setting": "20 µg/mL", "inhibition": "55.1%"}
{"SMILES": "O=C(O[C@H]1Cc2c(O)cc(O)cc2O[C@@H]1c1ccc(O)c(O)c1)c1cc(O)c(O)c(O)c1", "target": "Si (Rattus norvegicus, UniProt P23739)", "test": "enzyme activity, inhibitor", "system": "rat intestinal brush border vesicles", "setting": "10 µM", "inhibition": "79.2%"}
